Measurements collected from several papers.
Numbered parts are unrelated; each lists some results of a single study.
Chain of UniProt P51812 (whole entry, looked up): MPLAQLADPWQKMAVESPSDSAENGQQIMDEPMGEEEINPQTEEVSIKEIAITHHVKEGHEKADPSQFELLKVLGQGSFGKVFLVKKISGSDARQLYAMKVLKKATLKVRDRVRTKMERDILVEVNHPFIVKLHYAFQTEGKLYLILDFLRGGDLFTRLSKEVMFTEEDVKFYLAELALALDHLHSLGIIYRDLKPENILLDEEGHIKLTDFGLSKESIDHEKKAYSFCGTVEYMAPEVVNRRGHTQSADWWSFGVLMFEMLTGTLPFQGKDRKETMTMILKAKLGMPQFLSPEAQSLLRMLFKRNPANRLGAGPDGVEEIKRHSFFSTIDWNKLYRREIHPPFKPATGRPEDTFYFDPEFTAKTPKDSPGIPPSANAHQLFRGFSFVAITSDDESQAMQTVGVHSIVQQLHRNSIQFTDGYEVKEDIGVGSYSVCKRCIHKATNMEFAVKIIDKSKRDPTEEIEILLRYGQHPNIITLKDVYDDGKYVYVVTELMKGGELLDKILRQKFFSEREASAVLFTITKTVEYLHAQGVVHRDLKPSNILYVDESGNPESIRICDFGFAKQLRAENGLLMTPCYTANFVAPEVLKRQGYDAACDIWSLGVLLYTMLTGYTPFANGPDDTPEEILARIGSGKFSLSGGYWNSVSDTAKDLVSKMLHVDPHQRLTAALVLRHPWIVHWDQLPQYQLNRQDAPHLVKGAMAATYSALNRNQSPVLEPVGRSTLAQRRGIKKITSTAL

Set 1 — method: protein binding microarray; molecule type: double-stranded DNA, one strand shown; medium: in vitro; tested at: not given; baseline: not given; direction: higher = stronger binding; quantity: E-score
Target: Histone acetyltransferase KAT6A, winged helix 2, GST fusion (KAT6A, Homo sapiens, UniProt Q92794, residues 85-181)
Setting: 8-mer, flanks averaged, mean of 2 arrays, mostly near background
Construct (chain): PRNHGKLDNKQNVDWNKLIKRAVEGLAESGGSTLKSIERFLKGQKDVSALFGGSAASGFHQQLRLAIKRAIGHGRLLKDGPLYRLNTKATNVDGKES
Oligonucleotide = GCGTGAGC; value = 0.138
Oligonucleotide = ATGTGAAC; value = -0.172
Oligonucleotide = CACACCGG; value = 0.0983
Oligonucleotide = CGGCAGGC; value = 0.127
Oligonucleotide = AGCCGTAG; value = -0.0153
Oligonucleotide = ACGTGCCT; value = 0.00337
Oligonucleotide = ATCCGGCA; value = 0.136
Oligonucleotide = CACTCTAG; value = 0.115

Set 2 — method: aptamer microarray, sandwich; molecule type: DNA with 2'F-ANA; medium: in vitro; tested at: 200 nM; with: Cy3 exosite-II aptamer, 400 nM; direction: higher = stronger binding; quantity: mean fluorescence intensity; oligonucleotide: GGTTGGTGTGGTTGG
Target: Prothrombin, mature alpha-thrombin (F2, Homo sapiens, UniProt P00734)
Setting: whole 15-mer aptamer, many near background
Modification = 2'F-ANA at 2 3 4 6 7 11 13; value = 333 a.u.
Modification = 2'F-ANA at 2 6 7 14; value = 141 a.u.
Modification = 2'F-ANA at 1 3 4 5 6 7 8 11 12 15; value = 122 a.u.
Modification = 2'F-ANA at 1 5 6 7 8 10 14; value = 52.9 a.u.
Modification = 2'F-ANA at 4 10 11 12 14 15; value = 58.7 a.u.
Modification = 2'F-ANA at 1 2 4 10 15; value = 54.9 a.u.
Modification = 2'F-ANA at 5 8 10 13 14; value = 49.3 a.u.
Modification = 2'F-ANA at 1 4 5 7 9 10 11 12 13 14 15; value = 53.8 a.u.

Set 3 — method: RNA Bind-n-Seq; molecule type: RNA; medium: in vitro; tested at: 200 nM; setting: whole 134-nt RNA, ends assumed; with: 150 mM KCl; baseline: input library; direction: higher = stronger binding; quantity: log2 enrichment
Target: Ras GTPase-activating protein-binding protein 1, full length (G3BP1, Homo sapiens, UniProt Q13283)
Chain of UniProt Q13283 (whole entry, looked up): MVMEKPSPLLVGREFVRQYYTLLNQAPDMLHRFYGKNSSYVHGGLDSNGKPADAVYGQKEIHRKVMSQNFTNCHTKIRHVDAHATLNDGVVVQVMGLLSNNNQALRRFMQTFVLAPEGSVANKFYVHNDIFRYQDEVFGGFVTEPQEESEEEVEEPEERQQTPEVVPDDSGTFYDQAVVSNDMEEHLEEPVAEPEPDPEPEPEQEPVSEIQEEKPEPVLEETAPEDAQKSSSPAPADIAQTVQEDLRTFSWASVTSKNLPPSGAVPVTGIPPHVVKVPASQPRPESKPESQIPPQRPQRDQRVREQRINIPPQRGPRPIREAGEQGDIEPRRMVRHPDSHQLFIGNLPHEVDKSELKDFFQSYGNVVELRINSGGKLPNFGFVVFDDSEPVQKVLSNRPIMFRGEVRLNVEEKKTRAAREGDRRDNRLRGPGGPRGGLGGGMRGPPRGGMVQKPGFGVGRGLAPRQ
Oligonucleotide = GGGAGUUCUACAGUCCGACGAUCCUCAAGUCCUGUGCUACACAUCGUAUGUACCGAAUCGGUUUGGAAAAAGGUGGAAAGUAUUAUGUUACGCCGUUCGGAUCUGCACUUCCAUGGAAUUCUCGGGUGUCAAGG; value = -0.269
Oligonucleotide = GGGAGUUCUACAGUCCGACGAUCCACAGACAACACGCACCCACACAGACACAGAGGGAAGGGGUUCGGAUGGGGACAGGGUGCACAGCAGGGCGGGGUAGGACCCCAGCCCCUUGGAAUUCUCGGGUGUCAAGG; value = 1.74
Oligonucleotide = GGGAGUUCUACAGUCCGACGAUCUCCUGUGCUACACAUCGUAUGUACCGAAUCGGGGUUUUUUUGGGGAAAGGGGAAAGGGGAAAGUAUUAUGUUACGCCGUUCGGAUCUGCAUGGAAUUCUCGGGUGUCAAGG; value = 0.798
Oligonucleotide = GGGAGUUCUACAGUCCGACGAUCUGGCCCUGGUGGCAUGCGGGGAGGAAGAGGUGGCCUCAUGGAUCGUGGUGGUCCCGGUGAAAUGUUCAGAGGUGGCCGUGGUGGAGACAGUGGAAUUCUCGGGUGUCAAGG; value = -0.103
Oligonucleotide = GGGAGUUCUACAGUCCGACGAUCUCCUCAAGUCCUGUGCUACACAUCGUAUGUACCGAAUCGGCGGCGGGGCGGAAAGUAUUAUGUUACGCCGUUCGGAUCUGCACUUCCAGCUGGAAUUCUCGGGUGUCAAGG; value = -0.285
Oligonucleotide = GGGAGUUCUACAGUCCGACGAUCGUCCUGUGCUACACAUCGUAUGUACCGAAUCGGGGAAAGGGGUGGGGUUUUUUUGGGGAAAGUAUUAUGUUACGCCGUUCGGAUCUGCACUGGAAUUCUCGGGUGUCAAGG; value = 0.47
Oligonucleotide = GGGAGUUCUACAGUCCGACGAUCUCCUGUGCUACACAUCGUAUGUACCGAAUCGGGGAAAAAGGGGAAAAAAAGGGGUGGGGAAAGUAUUAUGUUACGCCGUUCGGAUCUGCAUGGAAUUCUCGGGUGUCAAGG; value = 0.657
Oligonucleotide = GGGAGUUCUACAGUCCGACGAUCUUGCAGCAACUGCUACCAGCCUCCCAGUCCACACAGCUGCCAUGCUCAAGUUCCCCUCAGGAGACCACCCAGUCUCGCCCUAUGCCGCCGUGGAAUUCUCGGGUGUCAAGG; value = 0.346

Single results of other studies
Compound = O=C(O)[C@@H]1[C@@H](Cn2nnc3ccccc3c2=O)CC[C@H]1C(=O)c1ccc(OCCC2CCOCC2)cc1; target = Ribosomal protein S6 kinase alpha-3, N-terminal kinase domain (RPS6KA3, Homo sapiens, UniProt P51812); effect on = cell-free assay; method = competition with immobilised ligand; tested at = 1 µM; quantity = remaining binding; value = 100%
